Assay results pooled from the literature.
Each line is one published result; not all experiments were run side by side. Values joined by “and” are separate records of one study, mostly repeats; a detail may differ.
Target: Serine/threonine-protein kinase 16 (STK16, Homo sapiens, UniProt O75716)

| Structure (SMILES) | test | system | conditions | how to read | endpoint | result |
| --- | --- | --- | --- | --- | --- | --- |
| Cc1ccc(C(=O)Nc2ccc(CN3CCN(C)CC3)c(C(F)(F)F)c2)cc1C#Cc1cnc2cccnn12 | target engagement, NanoBRET | human cells |  |  | upper asymptote | 1.9 |
| Cc1cccc(O[C@H]2CCC[C@@H](C(C)CNCc3ccncc3)C2)c1 (relative stereo) | enzyme activity, inhibitor |  | 10 µM |  | inhibition | -1% |
| Nc1ncc2c(n1)-c1c([nH]c3ccc(C4=CCOCC4)cc13)CCC2 | binding, competition with immobilised ligand |  | 1 µM |  | remaining binding | 29% |
| CNC1C[S+]2CC[S+]3CC[S+](C1)[Ru-4]321([N]=C=S)[n]2c3ccc(OC)cc3c3c4c(c5cc(F)c[n+]1c5c32)C(=O)NC4=O (centres unmarked) | KinomeScan |  | 0.1 µM | baseline: untreated | remaining binding | 84% |
| CNC(=O)C[C@H](Cc1ccc(C#N)cc1)NC(=O)c1cc(-c2ccc(CN[C@H](C)c3ccc(C)cc3)o2)ccc1Cl | enzyme activity, inhibitor |  | 1 µM |  | activity vs control | 108% |
| C=CC(=O)Nc1cccc(-c2cnc3[nH]cc(C(=O)NC(C)(C)C)c3n2)c1 | kinase activity |  | 0.1 µM |  | inhibition | -1% and 5% |
| NC(=O)C[C@H]1CCc2sc3ncnc(O[C@H]4CC[C@H](N5CCOCC5)CC4)c3c21 | enzyme activity, inhibitor |  | 10 µM |  | inhibition | 4% |
| Cc1ccc(-c2c(/C=C(\C#N)C(=O)NC(C)C)n(CCCO)c3ncnc(N)c23)cc1 | cell-free assay, competition with immobilised ligand |  | 1 µM |  | remaining binding | 22% |
| C[C@]1(O)CCCN(c2nc(Nc3ccc(S(=O)(=O)N[C@H]4CC[C@H](CN5CCN(c6ccc(C7CCC(=O)NC7=O)cc6F)CC5)CC4)cc3)ncc2C(F)(F)F)C1 (some centres unmarked) | binding, competition with immobilised ligand |  | 1 µM |  | remaining binding | 8.3% |
| C=CC(=O)N1Cc2nc(-c3cc(-c4cc(Cl)cnc4Cl)c(F)cc3F)n(-c3ccncn3)c2C1 | cell-free assay, inhibitor |  | 1 µM |  | inhibition | -3.8% |
| O=C(Cc1ccc(OCc2ccccc2)cc1)NC1(C(=O)O)CCN(C(=O)c2ccc(-c3cccc(Cl)c3)cc2)CC1 | enzyme activity, inhibitor |  | 10 µM |  | activity vs control | 120% |
| CN1CC[C@@H](COc2cnc(C#N)cc2-c2ccn3nc(NC(=O)C4CC4)cc3c2)C1 | enzyme activity, inhibitor |  | 1 µM |  | inhibition | 0% |
| C=CC(=O)N1CCCC(n2c(=O)c3ncccc3n(Cc3ccc(Oc4ccccc4)cc3)c2=O)C1 (centres unmarked) | cell-free assay, competition with immobilised ligand |  | 1 µM |  | remaining binding | 100% |
| C=CC(=O)N1CCc2ccc(-n3c(=O)ccc4cnc5ccc(-c6cnn(C)c6)cc5c43)cc21 | KINOMEscan |  | 1 µM | baseline: DMSO control | remaining binding | 97% |

For quick reference, copied from above:
| Structure (SMILES) | test | system | conditions | how to read | endpoint | result |
| --- | --- | --- | --- | --- | --- | --- |
| C=CC(=O)N1CCCC(n2c(=O)c3ncccc3n(Cc3ccc(Oc4ccccc4)cc3)c2=O)C1 (centres unmarked) | cell-free assay, competition with immobilised ligand |  | 1 µM |  | remaining binding | 100% |
| C=CC(=O)N1Cc2nc(-c3cc(-c4cc(Cl)cnc4Cl)c(F)cc3F)n(-c3ccncn3)c2C1 | cell-free assay, inhibitor |  | 1 µM |  | inhibition | -3.8% |
